Measured values of several laboratories.
Each line is one published result; not all experiments were run side by side.
TDP1: Tyrosyl-DNA phosphodiesterase 1 (TDP1, Homo sapiens, UniProt Q9NUW8)
Sequence of UniProt Q9NUW8 (whole entry, looked up): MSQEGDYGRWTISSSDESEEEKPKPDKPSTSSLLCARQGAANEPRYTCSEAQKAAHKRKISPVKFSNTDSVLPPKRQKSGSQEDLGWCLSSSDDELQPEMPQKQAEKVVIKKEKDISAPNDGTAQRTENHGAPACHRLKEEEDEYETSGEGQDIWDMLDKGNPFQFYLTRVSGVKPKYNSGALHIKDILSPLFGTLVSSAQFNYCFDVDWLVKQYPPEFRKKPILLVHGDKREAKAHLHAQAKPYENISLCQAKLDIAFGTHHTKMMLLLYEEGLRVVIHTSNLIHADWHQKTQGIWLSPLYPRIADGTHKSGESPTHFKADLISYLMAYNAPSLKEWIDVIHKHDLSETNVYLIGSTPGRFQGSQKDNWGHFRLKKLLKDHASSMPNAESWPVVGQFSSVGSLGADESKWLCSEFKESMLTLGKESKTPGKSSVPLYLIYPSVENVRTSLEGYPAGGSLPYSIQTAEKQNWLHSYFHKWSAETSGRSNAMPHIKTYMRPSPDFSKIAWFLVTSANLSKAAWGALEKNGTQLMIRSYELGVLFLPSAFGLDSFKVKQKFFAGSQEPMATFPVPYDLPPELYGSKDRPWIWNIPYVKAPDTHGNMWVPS

Compound | target or system | test | test system | setting | scale | endpoint | value
Cn1ncc(Cl)c1C=NOCc1ccc(-c2nc3cc(-c4ccccc4)ccn3c2Nc2ccc(C(=O)O)cc2)cc1 | TDP1 | enzyme activity, inhibitor | – | 100 µM, unpurified compound | – | inhibition | 31.4%
C=CC(=O)Nc1cccc(Cn2ncc3cnc(Nc4cnn(CCOC)c4)nc32)c1 | MST4 human | binding, KINOMEscan | – | 100 nM | lower = stronger binding | percent of control | 100%
CN1CCCNC(=O)c2cccc(c2)C(=O)NCCCN(C)CCCNc2cccc3c2C(=O)c2cccc(c2C3=O)NCCC1 | SAS | RNA-Seq, refers to: SFSWAP mRNA | – | 1 µM, 6 h | baseline: untreated cells | log2 fold change | -0.717
Cn1ncc2cc(-c3cncc(Cl)c3N3CCC4(CCNC4=O)CC3)ccc21 | LS174T | gene expression, microarray, refers to: TFF1 mRNA | – | concentration not given, 4 h | baseline: untreated cells | log2 fold change | 1.78
Cc1ncsc1-c1ccc(C(C)NC(=O)C2CC(O)CN2C(=O)C(NC(=O)CCCCCCCCCCN2CCCC(Nc3ncc(Cl)c(Nc4ccccc4S(=O)(=O)C(C)C)n3)C2)C(C)(C)C)cc1 (stereo not drawn) | 22Rv1 | RNA-seq, refers to: TBC1D31 mRNA | – | concentration not given | baseline: DMSO | log2 fold change | -1.38
COC(=O)c1ccc(-c2cccc(C=NOCc3ccc4nc(-c5ccccc5)c(Nc5ccc(C(=O)O)cc5)n4c3)n2)cc1 (mixture of isomers) | TDP1 | enzyme activity, inhibitor | – | 100 µM, unpurified compound | – | inhibition | 42.2%
Nc1ncc(-c2cc(-c3cnn(CC(F)(F)F)c3)ncc2F)nc1C(=O)NC1CNCC(F)C1 (stereo not drawn) | TRKC | KINOMEscan competition binding | – | 1 µM | baseline: DMSO control | remaining binding | 100%
CCN(CC)CC(=O)Nc1cccc(-n2cc(-c3ccc4ccc(-c5cn(-c6cccc(NC(=O)CN(CC)CC)c6)nn5)cc4c3)nn2)c1 | RCC4 | PCR angiogenesis array, refers to: TGFBR1 | – | 5 x IC50, 6 h, normoxia | baseline: untreated | fold regulation | -1.34 fold
CNS(=O)(=O)Nc1nccc(Cc2c(C)c3ccc(Oc4ncccc4F)cc3oc2=O)c1F | SNU-81 | cell viability, CellTiter-Glo | – | 7 days | – | IC50 | 550 nM
C=CC(=O)N1[C@H](c2ccc3c(c2)OCO3)c2[nH]c3ccccc3c2C[C@@H]1C(=O)N1CCN(C)CC1 | human cyclin E1 N112C-3xFLAG:CDK2 | co-IP with TMT proteomics, refers to: TUBA1A | – | concentration not given, Q71U36 | baseline: wild type DMSO | relative co-enrichment | 112%
C=C(NC(=O)c1csc(-c2nc3c(cc2O)-c2nc(cs2)C(=O)NC(C(C)O)C(=O)NC(=C(C)OC)c2nc(cs2)C(=O)NC2c4nc(cs4)C(=O)NC(COC(=O)c4c5c6c(cccc6n4O)COC(=O)C(OC4CC(C)(O)C(N(C)C)C(C)O4)C2OC5)c2nc-3cs2)n1)C(N)=O (stereo not drawn) | Streptococcus pneumoniae | – | -25, immunocompromised mice, lung infection | tid dosing | – | lung bacterial load at ED50 | 5.08 log CFU/g
COC1CN([C@H]2CC[C@H]([C@@]3(C)Oc4c(Cl)cc(C(=O)NCc5c(SC)cc(C)[nH]c5=O)c(C)c4O3)CC2)C1 | – | RNA-seq, refers to: BMPR1A | human, whole blood | dose not given, 24 h | baseline: pretreatment baseline | log2 fold change | 1.32

Excerpt of the above:
Compound | target or system | test | test system | setting | scale | endpoint | value
COC1CN([C@H]2CC[C@H]([C@@]3(C)Oc4c(Cl)cc(C(=O)NCc5c(SC)cc(C)[nH]c5=O)c(C)c4O3)CC2)C1 | – | RNA-seq, refers to: BMPR1A | human, whole blood | dose not given, 24 h | baseline: pretreatment baseline | log2 fold change | 1.32
C=CC(=O)N1[C@H](c2ccc3c(c2)OCO3)c2[nH]c3ccccc3c2C[C@@H]1C(=O)N1CCN(C)CC1 | human cyclin E1 N112C-3xFLAG:CDK2 | co-IP with TMT proteomics, refers to: TUBA1A | – | concentration not given, Q71U36 | baseline: wild type DMSO | relative co-enrichment | 112%
